Measured values pooled from the literature.
Every numbered part comes from another study and shows a few of its results, in no order.
Sequence of UniProt P49674 (whole entry, looked up): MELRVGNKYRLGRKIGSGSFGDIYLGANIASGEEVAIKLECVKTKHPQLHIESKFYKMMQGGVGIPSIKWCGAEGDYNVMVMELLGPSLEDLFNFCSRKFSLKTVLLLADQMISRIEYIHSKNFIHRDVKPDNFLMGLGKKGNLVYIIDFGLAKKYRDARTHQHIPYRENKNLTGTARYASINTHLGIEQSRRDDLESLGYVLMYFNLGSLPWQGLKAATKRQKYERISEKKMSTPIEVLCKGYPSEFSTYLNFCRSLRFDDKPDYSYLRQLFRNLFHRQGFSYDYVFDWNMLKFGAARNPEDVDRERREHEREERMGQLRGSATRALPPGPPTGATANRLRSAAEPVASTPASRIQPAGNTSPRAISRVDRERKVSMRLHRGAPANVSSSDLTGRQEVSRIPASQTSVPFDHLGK
Sequence of UniProt P42338 (whole entry, looked up): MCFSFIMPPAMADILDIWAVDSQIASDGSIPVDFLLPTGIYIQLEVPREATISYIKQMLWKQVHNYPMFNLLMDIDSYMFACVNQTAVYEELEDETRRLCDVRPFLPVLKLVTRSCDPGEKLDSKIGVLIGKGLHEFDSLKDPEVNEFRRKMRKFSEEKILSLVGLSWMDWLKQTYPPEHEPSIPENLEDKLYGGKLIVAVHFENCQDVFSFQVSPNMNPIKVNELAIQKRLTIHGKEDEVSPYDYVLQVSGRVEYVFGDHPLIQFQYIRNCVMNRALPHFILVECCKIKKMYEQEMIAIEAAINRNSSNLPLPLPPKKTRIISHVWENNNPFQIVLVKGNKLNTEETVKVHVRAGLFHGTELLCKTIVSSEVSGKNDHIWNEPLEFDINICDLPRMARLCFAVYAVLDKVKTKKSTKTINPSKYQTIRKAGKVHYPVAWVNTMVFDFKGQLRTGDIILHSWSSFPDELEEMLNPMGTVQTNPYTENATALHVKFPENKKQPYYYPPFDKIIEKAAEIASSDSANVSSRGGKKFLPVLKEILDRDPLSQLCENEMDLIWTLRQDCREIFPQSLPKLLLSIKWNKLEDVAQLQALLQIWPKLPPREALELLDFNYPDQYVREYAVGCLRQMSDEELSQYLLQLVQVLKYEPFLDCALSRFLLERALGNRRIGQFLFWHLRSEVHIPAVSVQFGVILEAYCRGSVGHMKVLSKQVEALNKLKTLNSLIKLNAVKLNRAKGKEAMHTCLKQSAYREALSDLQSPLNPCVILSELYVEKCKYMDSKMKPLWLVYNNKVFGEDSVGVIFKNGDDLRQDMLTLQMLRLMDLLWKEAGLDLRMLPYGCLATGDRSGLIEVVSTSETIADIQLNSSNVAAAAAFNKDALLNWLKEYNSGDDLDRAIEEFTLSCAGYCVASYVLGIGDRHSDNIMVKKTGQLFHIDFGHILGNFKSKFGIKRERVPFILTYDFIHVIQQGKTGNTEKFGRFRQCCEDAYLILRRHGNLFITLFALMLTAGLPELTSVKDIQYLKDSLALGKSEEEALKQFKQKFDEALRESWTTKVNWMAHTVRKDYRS
Sequence of UniProt P07949 (whole entry, unmodified, looked up): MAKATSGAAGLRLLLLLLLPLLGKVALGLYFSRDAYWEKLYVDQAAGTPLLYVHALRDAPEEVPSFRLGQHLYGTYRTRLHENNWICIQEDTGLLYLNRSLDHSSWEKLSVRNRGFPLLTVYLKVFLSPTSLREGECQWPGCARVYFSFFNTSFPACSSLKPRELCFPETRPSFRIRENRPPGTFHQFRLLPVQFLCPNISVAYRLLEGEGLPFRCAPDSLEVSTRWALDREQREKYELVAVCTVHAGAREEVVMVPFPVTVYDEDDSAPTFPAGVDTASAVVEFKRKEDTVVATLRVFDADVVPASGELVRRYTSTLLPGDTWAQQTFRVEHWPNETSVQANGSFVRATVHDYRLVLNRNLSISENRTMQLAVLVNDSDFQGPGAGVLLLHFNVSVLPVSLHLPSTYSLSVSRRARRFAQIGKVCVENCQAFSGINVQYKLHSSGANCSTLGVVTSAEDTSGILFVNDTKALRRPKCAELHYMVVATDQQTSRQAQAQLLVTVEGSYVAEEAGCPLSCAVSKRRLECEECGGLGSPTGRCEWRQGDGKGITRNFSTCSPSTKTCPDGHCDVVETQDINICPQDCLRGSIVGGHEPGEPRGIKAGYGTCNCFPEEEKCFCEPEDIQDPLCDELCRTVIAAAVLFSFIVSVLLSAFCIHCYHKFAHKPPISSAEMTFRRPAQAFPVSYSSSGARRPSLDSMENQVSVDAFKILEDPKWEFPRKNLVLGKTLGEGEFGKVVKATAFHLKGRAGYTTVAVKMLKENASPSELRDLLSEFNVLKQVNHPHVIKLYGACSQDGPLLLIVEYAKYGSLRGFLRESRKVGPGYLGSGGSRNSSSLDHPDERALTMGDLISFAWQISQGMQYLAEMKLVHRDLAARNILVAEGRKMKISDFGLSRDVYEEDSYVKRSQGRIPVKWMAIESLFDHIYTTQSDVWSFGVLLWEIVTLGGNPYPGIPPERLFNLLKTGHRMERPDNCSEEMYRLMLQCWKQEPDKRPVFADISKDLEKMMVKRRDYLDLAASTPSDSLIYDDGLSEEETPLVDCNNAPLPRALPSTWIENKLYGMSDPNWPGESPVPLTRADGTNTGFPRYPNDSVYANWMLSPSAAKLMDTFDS
Sequence of UniProt Q9BZL6 (whole entry, looked up): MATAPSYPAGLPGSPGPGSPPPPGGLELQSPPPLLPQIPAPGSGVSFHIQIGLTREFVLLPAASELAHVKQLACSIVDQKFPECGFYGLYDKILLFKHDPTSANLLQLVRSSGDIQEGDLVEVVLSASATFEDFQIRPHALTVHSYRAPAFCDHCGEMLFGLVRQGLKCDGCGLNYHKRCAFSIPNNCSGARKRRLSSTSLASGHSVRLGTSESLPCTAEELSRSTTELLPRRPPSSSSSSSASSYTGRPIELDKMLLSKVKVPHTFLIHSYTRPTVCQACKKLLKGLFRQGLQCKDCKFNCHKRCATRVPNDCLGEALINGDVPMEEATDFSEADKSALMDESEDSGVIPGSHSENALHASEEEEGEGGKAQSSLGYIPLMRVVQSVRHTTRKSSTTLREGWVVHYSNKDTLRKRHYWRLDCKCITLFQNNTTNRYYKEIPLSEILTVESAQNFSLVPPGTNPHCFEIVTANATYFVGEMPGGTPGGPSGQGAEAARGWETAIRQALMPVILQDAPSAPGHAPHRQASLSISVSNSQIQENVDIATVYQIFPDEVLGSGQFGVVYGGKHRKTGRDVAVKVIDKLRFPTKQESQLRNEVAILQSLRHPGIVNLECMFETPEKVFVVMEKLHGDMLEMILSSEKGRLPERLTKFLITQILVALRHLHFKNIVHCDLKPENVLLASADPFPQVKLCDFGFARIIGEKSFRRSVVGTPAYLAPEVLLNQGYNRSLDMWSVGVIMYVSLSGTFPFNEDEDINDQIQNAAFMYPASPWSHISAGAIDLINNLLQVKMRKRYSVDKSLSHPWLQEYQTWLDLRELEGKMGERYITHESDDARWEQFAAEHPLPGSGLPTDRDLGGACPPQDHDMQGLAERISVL
Sequence of UniProt Q13043 (whole entry, looked up): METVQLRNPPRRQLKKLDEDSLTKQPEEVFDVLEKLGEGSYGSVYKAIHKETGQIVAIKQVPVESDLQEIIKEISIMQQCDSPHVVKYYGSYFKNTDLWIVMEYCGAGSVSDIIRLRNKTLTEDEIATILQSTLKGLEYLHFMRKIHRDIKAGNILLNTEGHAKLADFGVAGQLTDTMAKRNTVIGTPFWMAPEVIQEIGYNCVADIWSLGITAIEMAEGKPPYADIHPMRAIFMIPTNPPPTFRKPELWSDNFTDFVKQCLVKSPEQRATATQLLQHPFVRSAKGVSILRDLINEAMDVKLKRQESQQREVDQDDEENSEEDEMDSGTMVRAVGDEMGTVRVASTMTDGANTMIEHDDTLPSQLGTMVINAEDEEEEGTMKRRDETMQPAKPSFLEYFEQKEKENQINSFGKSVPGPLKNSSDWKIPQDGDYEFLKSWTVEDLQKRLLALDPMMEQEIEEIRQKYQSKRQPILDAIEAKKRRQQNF
Sequence of UniProt P50613 (whole entry, looked up): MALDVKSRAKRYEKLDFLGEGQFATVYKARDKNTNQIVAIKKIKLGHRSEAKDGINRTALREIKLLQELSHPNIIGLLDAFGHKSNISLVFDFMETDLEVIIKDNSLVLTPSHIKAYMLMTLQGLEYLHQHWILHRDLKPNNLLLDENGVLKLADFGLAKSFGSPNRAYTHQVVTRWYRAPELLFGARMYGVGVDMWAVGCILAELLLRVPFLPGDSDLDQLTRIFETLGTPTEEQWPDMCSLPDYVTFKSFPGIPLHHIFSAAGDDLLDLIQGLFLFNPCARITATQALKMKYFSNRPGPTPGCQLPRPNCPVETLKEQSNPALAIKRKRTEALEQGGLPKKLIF

Series 1 — observed: cell-free assay; method: competition with immobilised ligand; tested at: 1 µM
Compound: Cc1nc(C2CCN(C(=O)c3ccc(OC(F)(F)F)cc3N)CC2)c2ncc(N3CCN(C)CC3)cc2n1
target | remaining binding [%]
Calcium/calmodulin-dependent protein kinase type II subunit beta (CAMK2B, Homo sapiens, UniProt Q13554) | 100
Epidermal growth factor receptor (EGFR, Homo sapiens, UniProt P00533, G719C) | 100
Tyrosine-protein kinase Lyn (LYN, Homo sapiens, UniProt P07948) | 100
Cyclin-dependent kinase 4, with cyclin D3 (CDK4, Homo sapiens, UniProt P11802) | 100
Casein kinase I isoform epsilon (CSNK1E, Homo sapiens, UniProt P49674) | 100
Tyrosine-protein kinase ABL2 (ABL2, Homo sapiens, UniProt P42684) | 93
Cyclin-dependent kinase 15 (CDK15, Homo sapiens, UniProt Q96Q40) | 100
Dual specificity protein kinase CLK2 (CLK2, Homo sapiens, UniProt P49760) | 100
Phosphatidylinositol 4,5-bisphosphate 3-kinase catalytic subunit beta isoform (PIK3CB, Homo sapiens, UniProt P42338) | 94
cAMP-dependent protein kinase catalytic subunit beta (PRKACB, Homo sapiens, UniProt P22694) | 100
Serine/threonine-protein kinase 38-like (STK38L, Homo sapiens, UniProt Q9Y2H1) | 100
Tyrosine-protein kinase ABL1, non-phosphorylated (ABL1, Homo sapiens, UniProt P00519, T315I) | 89
Tyrosine-protein kinase receptor TYRO3 (TYRO3, Homo sapiens, UniProt Q06418) | 100
Inhibitor of nuclear factor kappa-B kinase subunit epsilon (IKBKE, Homo sapiens, UniProt Q14164) | 97
Calcium/calmodulin-dependent protein kinase type II subunit delta (CAMK2D, Homo sapiens, UniProt Q13557) | 100
Serine/threonine-protein kinase DCLK2 (DCLK2, Homo sapiens, UniProt Q8N568) | 100
Aurora kinase B (AURKB, Homo sapiens, UniProt Q96GD4) | 88
Serine/threonine-protein kinase B-raf (BRAF, Homo sapiens, UniProt P15056, V600E) | 100
Receptor tyrosine-protein kinase erbB-4 (ERBB4, Homo sapiens, UniProt Q15303) | 100
Serine/threonine-protein kinase 32A (STK32A, Homo sapiens, UniProt Q8WU08) | 86
ALK tyrosine kinase receptor (ALK, Homo sapiens, UniProt Q9UM73) | 89
Cyclin-dependent kinase 7 (CDK7, Homo sapiens, UniProt P50613) | 100
Phosphatidylinositol 4-phosphate 5-kinase type-1 alpha (PIP5K1A, Homo sapiens, UniProt Q99755) | 63
Proto-oncogene tyrosine-protein kinase receptor Ret (RET, Homo sapiens, UniProt P07949, V804M) | 100
Tyrosine-protein kinase Fes/Fps (FES, Homo sapiens, UniProt P07332) | 96

Series 2 — cell line: Huh-7; tested at: 10 µM; time: 24 h
SMILES | viability
OCCc1ccccc1 | 98.6%
CO[C@H]1C[C@H](O[C@H]2[C@H](C)[C@@H](O[C@@H]3O[C@H](C)C[C@H](N(C)C)[C@H]3OC(C)=O)[C@@H](C)C[C@@]3(CO3)C(=O)[C@H](C)[C@@H](OC(C)=O)[C@@H](C)[C@@H](C)OC(=O)[C@@H]2C)O[C@@H](C)[C@@H]1OC(C)=O | 97.5%
CNC(=C[N+](=O)[O-])NCCSCc1csc(CN(C)C)n1 | 103%
CN1C(C(=O)Nc2ccccn2)=C(O)c2ccccc2S1(=O)=O | 102%
CC(C)(S)[C@@H](N)C(=O)O | 96.2%
COc1ccc(OC)c(C(O)CNC(=O)CN)c1 (stereo not drawn) | 89.3%
CN(C)CCc1c[nH]c2ccc(C[C@H]3COC(=O)N3)cc12 | 101%
CCCCCCCCCCCCCCCC(=O)O[C@@H]1[C@@H](O)[C@@H](O)[C@@H]([C@H](NC(=O)[C@@H]2C[C@@H](CCC)CN2C)[C@H](C)Cl)O[C@@H]1SC | 100%
C[C@]12CCC(=O)C=C1CC[C@@H]1[C@@H]2[C@@H](O)C[C@@]2(C)[C@H]1CC[C@]2(O)C(=O)COC(=O)CCC(=O)O | 99.1%
CN(C)[C@@H]1C(O)=C(C(N)=O)C(=O)[C@@]2(O)C(O)=C3C(=O)c4c(O)ccc(Cl)c4[C@@H](O)[C@H]3C[C@@H]12 | 90.2%
COc1ccc2cc([C@H](C)CO)ccc2c1 | 94.9%
O=C(Oc1ccccc1C(=O)O)c1ccccc1O | 102%

Series 3 — observed: enzyme activity; action: inhibitor; tested at: 0.5 µM; reference: control
Target: Tyrosine-protein kinase Fyn (FYN, Homo sapiens, UniProt P06241)
Sequence of UniProt P06241 (whole entry, looked up): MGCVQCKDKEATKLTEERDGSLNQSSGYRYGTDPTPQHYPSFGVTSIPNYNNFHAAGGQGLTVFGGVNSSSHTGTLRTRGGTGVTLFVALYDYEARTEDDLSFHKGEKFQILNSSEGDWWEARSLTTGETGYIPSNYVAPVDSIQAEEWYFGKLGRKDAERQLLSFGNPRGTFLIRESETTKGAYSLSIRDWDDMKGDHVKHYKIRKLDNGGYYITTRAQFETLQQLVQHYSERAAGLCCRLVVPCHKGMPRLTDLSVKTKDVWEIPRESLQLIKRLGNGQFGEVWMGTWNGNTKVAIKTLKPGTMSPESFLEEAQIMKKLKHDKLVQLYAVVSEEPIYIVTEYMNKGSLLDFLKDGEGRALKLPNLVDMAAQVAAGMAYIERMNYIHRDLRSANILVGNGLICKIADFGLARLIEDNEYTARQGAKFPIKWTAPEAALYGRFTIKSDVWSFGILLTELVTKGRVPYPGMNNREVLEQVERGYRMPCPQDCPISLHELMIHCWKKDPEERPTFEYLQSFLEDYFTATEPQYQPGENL
Structure (SMILES) | remaining activity [%]
O=C(O)/C=C/c1cc(Br)c(Br)c(Br)c1Br | 97.9
Nc1nc(Nc2ccc(S(N)(=O)=O)cc2)nn1C(=S)Nc1c(F)cccc1F | 24.8
O=C1NC(=O)/C(=C/c2ccc3c(c2)OC(F)(F)O3)S1 | 96
O=C(c1ccccc1)c1ccc(N2CCOCC2)cc1O | 106
Clc1ccc(Nc2nnc(Cc3ccncc3)c3ccccc23)cc1 | 104
FC(F)(F)c1ccc(/C=C/c2nc(COc3ccc(CCCCn4ccnn4)cc3)co2)cc1 | 97
COc1cc2c(N3CCN(C(=O)Nc4ccc(OC(C)C)cc4)CC3)ncnc2cc1OCCCN1CCCCC1 | 94.8
O=c1c(-c2ccc(F)cc2)c(-c2ccncc2)[nH]n1-c1ccc(Cl)cc1 | 94.8
C[C@@H](N)[C@H]1CC[C@H](C(=O)Nc2ccncc2)CC1 | 91.7
CC(C)(C)c1nc2c3cc[nH]c(=O)c3c3cc(F)ccc3c2[nH]1 | 52.3
N#C/C(=C(/N)SC1C=CC=CC1)c1cccc(C(O)c2ccncc2)c1 (stereo not drawn) | 101
CC(C)N(CCC(=O)c1ccc2ccccc2c1)Cc1ccccc1 | 95.3
CNc1cc2c(Nc3cccc(Br)c3)ncnc2cn1 | 91.7
NC(=O)c1ccc(-c2nc(-c3ccc4c(c3)OCCO4)c(-c3ccccn3)[nH]2)cc1 | 97.8
CCN(CC)CCCCN1c2ccccc2Oc2ccc(Cl)cc21 | 107
c1cc(-c2cnn3cc(-c4ccc(OCCN5CCCCC5)cc4)cnc23)ccn1 | 20.9
CC(C)n1cnc2c(Nc3cccc(Cl)c3)nc(NCCO)nc21 | 60.4
O=C1c2ccccc2-c2nc3nnnn3nc21 | 76.2
COc1cc2c(Nc3ccc(Br)cc3F)ncnc2cc1OCC1CCN(C)CC1 | 48.2
CCCCc1c(-c2ccc(O)cc2)[nH]c2nccnc12 | 62.1

Series 4 — method: competitive binding panel; tested at: 1 µM; reference: vehicle
SMILES: Cc1ccc(NC(=O)c2ccnc(C(F)(F)F)c2)cc1-c1cc(OCCO)nc(N2CCOCC2)c1
target | assay | remaining binding [%]
Epidermal growth factor receptor (EGFR, Homo sapiens, UniProt P00533, del752-759) | – | 88
Tyrosine-protein kinase Mer (MERTK, Homo sapiens, UniProt Q12866) | – | 89
Membrane-associated tyrosine- and threonine-specific cdc2-inhibitory kinase (PKMYT1, Homo sapiens, UniProt Q99640) | – | 93
Serine/threonine-protein kinase D2 (PRKD2, Homo sapiens, UniProt Q9BZL6) | – | 88
Serine/threonine-protein kinase 4 (STK4, Homo sapiens, UniProt Q13043) | refers to: MST1 | 100
Ephrin type-A receptor 3 (EPHA3, Homo sapiens, UniProt P29320) | – | 97

A few entries again (series 1):
target | remaining binding [%]
Phosphatidylinositol 4,5-bisphosphate 3-kinase catalytic subunit beta isoform (PIK3CB, Homo sapiens, UniProt P42338) | 94
Phosphatidylinositol 4-phosphate 5-kinase type-1 alpha (PIP5K1A, Homo sapiens, UniProt Q99755) | 63
Cyclin-dependent kinase 15 (CDK15, Homo sapiens, UniProt Q96Q40) | 100
Tyrosine-protein kinase Lyn (LYN, Homo sapiens, UniProt P07948) | 100
Cyclin-dependent kinase 4, with cyclin D3 (CDK4, Homo sapiens, UniProt P11802) | 100
Calcium/calmodulin-dependent protein kinase type II subunit beta (CAMK2B, Homo sapiens, UniProt Q13554) | 100
Proto-oncogene tyrosine-protein kinase receptor Ret (RET, Homo sapiens, UniProt P07949, V804M) | 100
Cyclin-dependent kinase 7 (CDK7, Homo sapiens, UniProt P50613) | 100
